Results of several laboratories.
Each line is one published result; not all experiments were run side by side. ± gives the spread as reported.
Sequence of UniProt Q96S37 (whole entry, looked up): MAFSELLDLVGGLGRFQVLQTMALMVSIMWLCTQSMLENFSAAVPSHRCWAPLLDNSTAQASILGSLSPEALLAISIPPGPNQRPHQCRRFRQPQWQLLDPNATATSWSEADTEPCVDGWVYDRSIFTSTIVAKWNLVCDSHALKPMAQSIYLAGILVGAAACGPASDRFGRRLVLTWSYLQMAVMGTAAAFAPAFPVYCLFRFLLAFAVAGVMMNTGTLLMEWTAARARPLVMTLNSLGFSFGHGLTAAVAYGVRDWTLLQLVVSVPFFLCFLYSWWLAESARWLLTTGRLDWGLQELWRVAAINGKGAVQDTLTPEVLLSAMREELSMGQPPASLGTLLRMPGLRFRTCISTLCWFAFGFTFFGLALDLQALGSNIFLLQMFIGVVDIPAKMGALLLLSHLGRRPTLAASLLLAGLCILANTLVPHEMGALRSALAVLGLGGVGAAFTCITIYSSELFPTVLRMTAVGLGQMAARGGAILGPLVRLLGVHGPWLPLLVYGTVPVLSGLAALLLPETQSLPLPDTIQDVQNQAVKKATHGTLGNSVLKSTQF
Sequence of UniProt P02769 (whole entry, looked up): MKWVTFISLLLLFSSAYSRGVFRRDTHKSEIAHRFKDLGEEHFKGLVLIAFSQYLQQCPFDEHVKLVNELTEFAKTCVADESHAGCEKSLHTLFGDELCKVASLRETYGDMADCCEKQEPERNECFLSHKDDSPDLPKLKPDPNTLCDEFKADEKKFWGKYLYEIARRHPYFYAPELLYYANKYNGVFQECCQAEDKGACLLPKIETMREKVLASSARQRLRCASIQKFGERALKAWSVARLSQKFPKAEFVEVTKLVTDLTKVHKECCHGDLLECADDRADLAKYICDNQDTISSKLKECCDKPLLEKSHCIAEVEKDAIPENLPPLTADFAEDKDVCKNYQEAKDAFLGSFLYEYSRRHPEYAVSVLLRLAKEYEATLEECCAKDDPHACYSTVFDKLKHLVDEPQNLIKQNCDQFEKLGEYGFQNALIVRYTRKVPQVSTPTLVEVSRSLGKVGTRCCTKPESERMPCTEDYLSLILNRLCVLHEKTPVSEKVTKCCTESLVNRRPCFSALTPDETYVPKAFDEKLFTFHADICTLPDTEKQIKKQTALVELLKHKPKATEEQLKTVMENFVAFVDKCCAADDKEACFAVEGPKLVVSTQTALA
Sequence of UniProt P43220 (whole entry, looked up): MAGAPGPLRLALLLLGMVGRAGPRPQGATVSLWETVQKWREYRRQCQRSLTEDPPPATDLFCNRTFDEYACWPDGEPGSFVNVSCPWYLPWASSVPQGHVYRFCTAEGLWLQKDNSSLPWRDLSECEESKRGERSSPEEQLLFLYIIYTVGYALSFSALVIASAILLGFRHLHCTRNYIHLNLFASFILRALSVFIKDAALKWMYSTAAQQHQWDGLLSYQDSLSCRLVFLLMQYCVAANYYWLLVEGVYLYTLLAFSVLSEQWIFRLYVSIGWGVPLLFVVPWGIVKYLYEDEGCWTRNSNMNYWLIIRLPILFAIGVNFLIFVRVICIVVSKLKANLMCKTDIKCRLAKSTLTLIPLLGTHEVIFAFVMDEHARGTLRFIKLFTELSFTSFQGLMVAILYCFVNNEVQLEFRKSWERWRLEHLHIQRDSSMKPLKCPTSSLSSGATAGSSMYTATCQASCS
Sequence of UniProt Q9NNX6 (whole entry, looked up): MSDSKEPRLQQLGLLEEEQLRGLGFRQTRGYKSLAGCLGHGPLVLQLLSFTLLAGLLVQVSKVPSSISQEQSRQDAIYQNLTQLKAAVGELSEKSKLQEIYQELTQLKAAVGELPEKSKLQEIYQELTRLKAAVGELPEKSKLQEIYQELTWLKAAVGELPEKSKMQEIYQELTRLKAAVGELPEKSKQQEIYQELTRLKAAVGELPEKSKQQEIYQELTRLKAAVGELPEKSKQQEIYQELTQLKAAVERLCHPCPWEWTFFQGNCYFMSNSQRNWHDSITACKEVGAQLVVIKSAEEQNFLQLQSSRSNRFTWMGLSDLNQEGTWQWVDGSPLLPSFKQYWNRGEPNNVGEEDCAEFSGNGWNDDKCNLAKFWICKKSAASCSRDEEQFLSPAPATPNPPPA
Sequence of UniProt P10275 (whole entry, looked up): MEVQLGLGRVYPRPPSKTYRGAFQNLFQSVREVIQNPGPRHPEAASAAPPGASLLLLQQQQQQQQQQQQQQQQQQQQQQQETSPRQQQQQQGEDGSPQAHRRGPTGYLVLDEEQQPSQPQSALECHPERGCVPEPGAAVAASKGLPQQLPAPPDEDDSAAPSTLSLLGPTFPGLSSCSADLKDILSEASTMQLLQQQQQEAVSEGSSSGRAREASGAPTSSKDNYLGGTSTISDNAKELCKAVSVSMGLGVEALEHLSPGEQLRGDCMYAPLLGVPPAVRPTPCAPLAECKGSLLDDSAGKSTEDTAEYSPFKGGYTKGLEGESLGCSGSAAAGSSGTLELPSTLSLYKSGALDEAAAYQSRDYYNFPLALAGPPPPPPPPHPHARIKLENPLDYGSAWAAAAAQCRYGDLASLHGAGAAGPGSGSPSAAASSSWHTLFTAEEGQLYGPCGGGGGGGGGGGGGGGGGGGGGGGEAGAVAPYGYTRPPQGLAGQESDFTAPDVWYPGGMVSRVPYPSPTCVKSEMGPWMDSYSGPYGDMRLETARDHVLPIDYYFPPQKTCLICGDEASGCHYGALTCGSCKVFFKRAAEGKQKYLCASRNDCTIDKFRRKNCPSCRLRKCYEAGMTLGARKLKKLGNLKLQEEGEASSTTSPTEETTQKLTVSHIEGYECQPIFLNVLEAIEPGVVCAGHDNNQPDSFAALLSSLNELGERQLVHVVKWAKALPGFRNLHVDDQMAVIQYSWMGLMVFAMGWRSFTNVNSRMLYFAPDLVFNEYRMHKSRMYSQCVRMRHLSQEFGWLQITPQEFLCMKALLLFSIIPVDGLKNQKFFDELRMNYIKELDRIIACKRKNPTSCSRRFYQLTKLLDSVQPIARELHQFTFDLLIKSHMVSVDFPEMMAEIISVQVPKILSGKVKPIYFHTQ
Sequence of UniProt P17931 (whole entry, unmodified, looked up): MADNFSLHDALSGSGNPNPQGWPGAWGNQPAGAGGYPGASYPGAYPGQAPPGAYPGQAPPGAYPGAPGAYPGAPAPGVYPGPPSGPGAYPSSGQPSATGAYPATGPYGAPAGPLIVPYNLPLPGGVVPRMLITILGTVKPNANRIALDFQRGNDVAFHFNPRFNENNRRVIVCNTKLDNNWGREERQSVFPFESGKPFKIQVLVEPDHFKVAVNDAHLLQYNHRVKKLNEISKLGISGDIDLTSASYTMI
Sequence of UniProt P31153 (whole entry, looked up): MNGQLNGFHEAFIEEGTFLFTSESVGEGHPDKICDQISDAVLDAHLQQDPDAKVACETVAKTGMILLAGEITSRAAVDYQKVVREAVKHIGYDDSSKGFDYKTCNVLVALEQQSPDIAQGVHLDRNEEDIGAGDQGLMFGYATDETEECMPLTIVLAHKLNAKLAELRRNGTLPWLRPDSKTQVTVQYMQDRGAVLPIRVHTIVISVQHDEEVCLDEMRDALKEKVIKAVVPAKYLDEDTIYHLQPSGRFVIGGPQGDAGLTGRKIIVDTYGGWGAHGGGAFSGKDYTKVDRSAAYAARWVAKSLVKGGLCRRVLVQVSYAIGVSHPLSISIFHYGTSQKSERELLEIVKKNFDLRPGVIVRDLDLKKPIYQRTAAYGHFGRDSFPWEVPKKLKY
Sequence of UniProt P35869 (whole entry, looked up): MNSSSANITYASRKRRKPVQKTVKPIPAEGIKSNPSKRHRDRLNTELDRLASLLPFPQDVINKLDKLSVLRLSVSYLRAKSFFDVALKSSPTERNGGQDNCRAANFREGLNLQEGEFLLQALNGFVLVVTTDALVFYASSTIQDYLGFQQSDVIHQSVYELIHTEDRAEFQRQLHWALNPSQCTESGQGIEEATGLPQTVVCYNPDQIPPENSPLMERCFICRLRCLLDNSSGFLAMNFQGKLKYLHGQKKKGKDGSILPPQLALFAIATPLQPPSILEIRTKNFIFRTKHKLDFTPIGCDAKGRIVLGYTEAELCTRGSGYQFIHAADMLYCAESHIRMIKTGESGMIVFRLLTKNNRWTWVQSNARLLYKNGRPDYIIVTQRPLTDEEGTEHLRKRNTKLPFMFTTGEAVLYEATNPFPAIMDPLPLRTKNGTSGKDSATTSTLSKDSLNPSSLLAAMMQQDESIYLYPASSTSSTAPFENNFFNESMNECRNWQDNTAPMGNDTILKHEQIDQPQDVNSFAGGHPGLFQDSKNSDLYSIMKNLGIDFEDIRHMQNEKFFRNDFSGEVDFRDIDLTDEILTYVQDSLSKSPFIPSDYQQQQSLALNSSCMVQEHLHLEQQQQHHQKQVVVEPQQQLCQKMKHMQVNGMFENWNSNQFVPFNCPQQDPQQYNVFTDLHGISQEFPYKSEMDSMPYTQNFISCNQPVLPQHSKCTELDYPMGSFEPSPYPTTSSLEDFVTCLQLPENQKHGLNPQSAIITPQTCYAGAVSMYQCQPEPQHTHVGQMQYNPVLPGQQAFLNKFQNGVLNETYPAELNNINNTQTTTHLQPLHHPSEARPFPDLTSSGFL

SMILES = CC[C@H](C)[C@H](NC(=O)[C@@H](NC(=O)[C@H](CS)NC(=O)[C@H](CCSC)NC(C)=O)[C@@H](C)O)C(=O)N[C@@H](CC(=O)O)C(=O)N[C@@H](Cc1ccc(F)cc1)C(=O)N[C@@H](CC(=O)O)C(=O)N[C@@H](CCC(=O)O)C(=O)N[C@@H](Cc1ccc(O)cc1)C(=O)N[C@@H](CCCNC(=N)N)C(=O)N[C@@H](Cc1ccc(F)cc1)C(=O)N[C@@H](CCCNC(=N)N)C(=O)N[C@@H](CCCCN)C(=O)N[C@H](C(N)=O)[C@@H](C)O; target = human BRCA1 BRCT K1702M; assay = fluorescence polarization; setting = concentration not given, FAM-labelled compound; how to read = reference: wild-type BRCA1 BRCT, higher = weaker binding; quantity = binding affinity fold reduction; result = ~6 fold
SMILES = CC(C)(Sc1nc2ncccc2n1Cc1ccc(Br)c2ccccc12)C(=O)O; target = Solute carrier family 22 member 12 (SLC22A12, Homo sapiens, UniProt Q96S37); test system = HEK293T transfected; setting = non-competitive model fit, added: [14C]urate; quantity = Vmax urate uptake; result = 2520 pmol/min/mg
SMILES = CCC(=O)N(C)c1ccc(Cl)c(Cl)c1; target = Aryl hydrocarbon receptor (AHR, Homo sapiens, UniProt P35869); assay = reporter gene, agonist; setting = 32 µM; how to read = reference: vehicle; quantity = fold activation; result = 11.2 fold
SMILES = Nc1ncnc2c1ncn2[C@@H]1O[C@H](COP(=O)(O)NP(=O)(O)OP(=O)(O)O)[C@@H](O)[C@H]1O; target = S-adenosylmethionine synthase isoform type-2 (MAT2A, Homo sapiens, UniProt P31153); assay = AdoMet formation, substrate; setting = enzyme 25 µM, added: methionine; quantity = steady-state rate; result = 0.0019 ± 0.00038 s⁻¹
SMILES = COc1ccc(-c2cc(C(F)(F)F)nc(NCc3ccc(Cl)cc3)n2)cc1OC; target = Glucagon-like peptide 1 receptor (GLP1R, Homo sapiens, UniProt P43220); assay = efficacy cooperativity, allosteric modulator; test system = HEK-293T overexpressing GLP1R; setting = added: GLP-1; quantity = cooperativity factor beta; result = 2
SMILES = Nc1nc2c(ncn2[C@@H]2O[C@@H]3COP(=O)(O)O[C@H]3[C@H]2O)c(=O)[nH]1; target = cGMP-specific 3',5'-cyclic phosphodiesterase (PDE5A, Homo sapiens, UniProt O76074); assay = hydrolysis, substrate, Lumit; quantity = specific activity; result = 78 nmol/min/mg
SMILES = C[C@@H]1O[C@@H](O[C@@H]2[C@H](O)[C@H](O[C@@H]3[C@@H](O)[C@@H](O)[C@H](O[C@@H]4[C@H](O)[C@H](O[C@@H]5[C@@H](O)[C@@H](O)C(O)O[C@H]5C)O[C@H](CO)[C@H]4O)O[C@H]3C)O[C@H](CO)[C@H]2O)[C@H](O)[C@H](O)[C@H]1O (stereo partly drawn); target = CD209 antigen (CD209, Homo sapiens, UniProt Q9NNX6); assay = binding to extracellular domain, STD NMR; setting = concentration not given, protein:ligand ratio 1:30; quantity = binding; result = no binding
SMILES = COc1c(F)c(F)c(C(=O)N[C@H]2[C@@H](O)[C@@H](CO)O[C@@H](S[C@@H]3O[C@H](CO)[C@H](O)[C@H](NC(=O)c4c(F)c(F)c(OC)c(F)c4F)[C@H]3O)[C@@H]2O)c(F)c1F; target = Galectin-3 (LGALS3, Homo sapiens, UniProt P17931); assay = ITC; setting = Kd fixed from FP; quantity = ΔH; result = -12.4 ± 0.239 kcal/mol
SMILES = COc1ccc(/C=C/C(=O)NC[C@H]2O[C@H](OC)[C@@H](O)[C@@H](O)[C@@H]2O)cc1OC; target = Fucose-binding lectin PA-IIL (lecB, Pseudomonas aeruginosa, UniProt Q9HYN5); assay = binding, ITC; setting = 25 °C; quantity = −TΔS; result = -1.18 ± 0.36 kcal/mol
SMILES = CC[C@H](C)[C@H](NC(=O)[C@@H]1CCCN1C(=O)[C@H](CCCCN)NC(=O)[C@H](CO)NC(=O)[C@H](CO)NC(=O)[C@H](Cc1ccc(O)cc1)NC(=O)[C@H](CO)NC(=O)[C@H](C)NC(=O)[C@H](CO)NC(=O)[C@@H](N)Cc1ccccc1)C(=O)N[C@@H](CCC(N)=O)C(=O)N[C@H](C(=O)N[C@@H](CCC(N)=O)C(=O)N[C@H](C(=O)N[C@@H](CO)C(=O)N[C@@H](CC(N)=O)C(=O)NCC(=O)N[C@@H](CCSC)C(=O)N[C@@H](CC(=O)O)C(=O)N[C@@H](CC(N)=O)C(=O)N[C@@H](C)C(=O)N[C@@H](CO)C(=O)N[C@@H](C)C(=O)N1CCC[C@H]1C(=O)N[C@H](C(=O)O)C(C)C)C(C)C)[C@@H](C)O; target = Peptide cyclase 1 (Gypsophila vaccaria, UniProt R4P353, S562A); assay = ITC; setting = pH 8.0, 25 °C; quantity = ΔG; result = -9.37 kcal/mol
SMILES = Cc1ccc2ccc3ccc(C)nc3c2n1.Cc1ccc2ccc3ccc(C)nc3c2n1.O.[Cl-].[Cl-].[Cl-].[Yb+3]; target = Albumin (ALB, Bos taurus, UniProt P02769); assay = fluorescence quenching titration; setting = concentration not given, 298 K; quantity = number of binding sites; result = 1.12
SMILES = CCCCCCCCCSc1nc2c([nH]1)c(=O)n(C)c(=S)n2C; target = Androgen receptor (AR, Homo sapiens, UniProt P10275); assay = reporter gene, antagonist, PSA-luciferase; test system = HeLa-A6; setting = 10 µM, 24 h, added: 5 nM dihydrotestosterone; how to read = reference: maximal activity; quantity = remaining activity; result = 123%

A few entries again:
SMILES = CCC(=O)N(C)c1ccc(Cl)c(Cl)c1; target = Aryl hydrocarbon receptor (AHR, Homo sapiens, UniProt P35869); assay = reporter gene, agonist; setting = 32 µM; how to read = reference: vehicle; quantity = fold activation; result = 11.2 fold
